# Experimental data from different studies.
# Compare with care: the assays were run in different laboratories. Numbers after ± are the reported error.
# STK24: Serine/threonine-protein kinase 24 (STK24, Homo sapiens, UniProt Q9Y6E0)
# UniProt Q9Y6E0, sequence (whole entry, looked up): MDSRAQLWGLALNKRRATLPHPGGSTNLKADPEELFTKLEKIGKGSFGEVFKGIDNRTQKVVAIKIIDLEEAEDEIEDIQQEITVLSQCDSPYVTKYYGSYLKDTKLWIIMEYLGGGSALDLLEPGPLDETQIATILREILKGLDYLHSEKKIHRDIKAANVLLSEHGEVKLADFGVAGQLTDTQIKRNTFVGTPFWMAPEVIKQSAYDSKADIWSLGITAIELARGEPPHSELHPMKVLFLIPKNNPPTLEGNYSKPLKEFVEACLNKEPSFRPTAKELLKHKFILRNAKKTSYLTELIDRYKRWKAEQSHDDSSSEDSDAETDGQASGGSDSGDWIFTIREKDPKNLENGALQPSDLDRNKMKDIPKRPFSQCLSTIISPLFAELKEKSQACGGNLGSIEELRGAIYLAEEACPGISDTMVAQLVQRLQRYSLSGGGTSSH
SMILES,tested on,assay,test system,setting,how to read,measurement,result
O=C1NC(=O)c2c1c1cc(F)c[n+]3c1c1c2c2cc(O)ccc2[n]1[Ru-4]312([N]=C=S)[S+]3CC[S+]1CC[S+]2CC3 (stereo not shown),AMPK (rat),"kinase activity, inhibitor",,"100 nM, with: 10 µM ATP",,remaining activity,49%
CC(C)C[C@@H](NC(=O)[C@@H](CCCNC(=N)N)NC(=O)[C@@H](Cc1c[nH]cn1)NC(=O)[C@@H](Cc1c[nH]c2ccccc12)NC(=O)[C@@H](Cc1c[nH]cn1)NC(=O)[C@@H](Cc1ccccc1)NC(=O)[C@H](NC(=O)[C@@H](Cc1ccc(O)cc1)NC(=O)CNC(=O)CNC(=O)CCOCCOCCOCCNC(=O)CN1CCN(CC(=O)O)CCN(CC(=O)O)CC1)[C@H](C)O)C(=O)N[C@H](CC(N)=O)C(=O)N1CCC[C@@H]1C(=O)O [gallium-68 labelled],,gamma counting,"C57BL/6 mice, male, pancreas","intravenous, 1.85 MBq, 120 min",,tissue uptake,0.48 ± 0.19 %ID/g
CC(C)C[C@H](NC(=O)[C@H](Cc1ccc(O)cc1)NC(=O)[C@H](C)NC(=O)[C@H](CC(N)=O)NC(=O)[C@H](CC(C)C)NC(=O)[C@H](C)NC(=O)[C@@H](NC(=O)[C@H](CCCCN)NC(=O)CNC(=O)[C@@H](NC(=O)[C@H](CC(N)=O)NC(=O)[C@H](CCCCN)NC(=O)CNC(=O)[C@@H](NC(=O)[C@H](Cc1c[nH]cn1)NC(=O)[C@H](C)NC(=O)[C@H](C)NC(=O)[C@H](CCCCN)NC(=O)[C@H](CCCCN)NC(=O)[C@H](Cc1ccccc1)NC(=O)[C@H](Cc1c[nH]c2ccccc12)NC(=O)[C@H](CCCCN)NC(=O)[C@H](CCCCN)NC(=O)[C@H](CS)NC(=O)CN)C(C)C)C(C)C)C(C)C)C(N)=O,,,"zebrafish embryos 4 hpf, E3 medium",24 h,,chronic toxic concentration,5 µM
COC(=O)[C@H]1[C@@H](c2ccc(Cl)c(Cl)c2)C[C@@H]2CC[C@H]1N2CCOc1c2ccccc2cc2ccccc12,,fluorometric titration,,"1 µM, 10% DMSO",,pKa,5.4
CC[C@H](C)[C@H](NC(=O)[C@H](CCCCN)NC(=O)CNC(=O)[C@H](CC(C)C)NC(=O)[C@H](Cc1ccccc1)NC(=O)[C@H](CCCCN)NC(=O)[C@H](CO)NC(=O)[C@H](Cc1ccccc1)NC(=O)[C@H](Cc1c[nH]c2ccccc12)NC(=O)[C@H](CCC(N)=O)NC(=O)[C@@H](NC(=O)[C@H](Cc1ccccc1)NC(=O)CCCCCNC(=O)CN1CCN(CC(=O)O)CCN(CC(=O)O)CCN(CC(=O)O)CC1)C(C)C)C(=O)N[C@@H](CCC(=O)O)C(=O)N1CCC[C@H]1C(=O)N[C@@H](CC(=O)O)C(=O)N[C@H](C(=O)N[C@@H](CO)C(=O)N[C@@H](CCC(N)=O)C(=O)N[C@H](C(=O)N[C@@H](CCC(N)=O)C(=O)N[C@@H](CC(=O)O)C(=O)N1CCC[C@H]1C(=O)N[C@@H](CC(N)=O)C(=O)N[C@@H](CC(=O)O)C(=O)N[C@@H](CCC(N)=O)C(=O)N[C@@H](Cc1ccc(O)cc1)C(=O)N[C@@H](CCC(=O)O)C(=O)N1CCC[C@H]1C(=O)N[C@@H](Cc1ccccc1)C(=O)O)C(C)C)C(C)C [copper-64 labelled],,dynamic PET,"mouse both sexes, CT26 tumour, untreated, tumour","intravenous, 100 µCi/mouse, 690 s",,SUVmean,1.14 SUV
N#[11C]c1ccc(-c2csc(NN=C3CCCC3)n2)cc1,,,"C57BL/6 mice, male, muscle","intravenous, 3 MBq, 5 min",,radioactivity uptake,2.47 ± 0.48 %ID/g
[2H]C([2H])([18F])[C@]([2H])(N)C(=O)O,,PET,athymic nude mouse,15 min,,maximum muscle uptake,1.59 ± 0.47 %ID/cc
CS(C)(=O)=Nc1ccc(-c2ccc(-c3nc4cc(O[C@@H]5CO[C@H]6[C@@H]5OC[C@H]6O)[nH]c4cc3F)cc2)cc1,STK24,"enzyme activity, inhibitor",,10 µM,,inhibition,-6%
NC1CCN(C(=O)Oc2ccc(C3CCCC4(C3)OOC3(O4)C4CC5CC(C4)CC3C5)cc2)CC1 (racemic),,,"male ICR mice, plasma","intravenous, 10 mg/kg",,AUC(0-inf),1150 ng·h/mL
O=C(OCc1ccc(F)cc1)N(Cc1cn(-c2cc3ccc(O)cc3oc2=O)nn1)[c-]1cccc1.[Fe+2].c1cc[cH-]c1,,absorbance,RPMI medium with 5% FBS,1% DMSO,,solubility,> 200 µM
CCCCC/C=C\CCCO[Si](CCCCN(C)C)(OCCC/C=C\CCCCC)OCCC/C=C\CCCCC,,"item: IL-6, MCP-1, ALT, AST",BALB/c mice,"intravenous, 6 mg/kg siRNA, 6 h cytokines, 24 h ALT/AST, LNP formulation",,tolerability,not toxic
COc1ccccc1-c1n[nH]c2nc(NC3CCN(C(=O)Cc4ccc(F)cc4F)CC3)ncc12,,"bead binding, competition bead pull-down, item: LINJ.33.2520",Leishmania donovani extract,10 µM,relative to: vehicle,relative abundance,0.89
CC[C@H](C)[C@H](NC(=O)[C@H](CO)NC(=O)[C@H](Cc1ccc(O)cc1)NC(=O)[C@H](Cc1ccc(O)cc1)NC(=O)[C@H](CC(N)=O)NC(=O)CNC(=O)[C@H](CO)NC(=O)[C@H](Cc1ccc(O)cc1)NC(=O)[C@H](CO)NC(=O)[C@H](CO)NC(=O)[C@H](CC(N)=O)NC(=O)COCCOCCNC(=O)CN1CCN(CC(=O)O)CCN(CC(=O)O)CCN(CC(=O)O)CC1)C(=O)N[C@@H](CC(C)C)C(N)=O [copper-64 labelled],,dynamic PET,"KPC mouse, pancreatic cancer model, tumor","intravenous, 27.5 min, 49 days after tamoxifen",,tumour uptake,6.73 %ID/mL
CC(C)=CCC/C(C)=C\CCn1cc(CC(P(=O)(O)O)P(=O)(O)O)nn1,,,"CD-1 mice, pooled bile","intravenous, 0.3 mg/kg, 24 h",,bile concentration,not detected
O=C1NC2(CC2)COc2ncc(F)cc2[C@H]2COCCN2c2ccn3ncc1c3n2,,,"Sprague-Dawley rat, male, plasma","oral, 20 mg/kg/day, end of treatment, 4-week repeated-dose toxicity",,prothrombin time,8.8 ± 0.3 s
Cc1nc2cccc(OCC(C)(C)C(=O)NC(C)C)c2c(N)c1C(=O)[O-].[Na+],Salmonella typhimurium,,TA1537,"0.32 mg per plate, with S9, preincubation",,revertant colonies per plate,18 ± 2
CCN(CC)CCOc1ccc(-c2nnn(Cc3ccc(OC)cc3)c2N)cc1,,,Sprague-Dawley rat,"100, 200, 400 mg/kg",,micronucleus formation,negative
CN(C)[C@H]1C[C@@]23CC[C@@]4(O2)C(=CC[C@]2(C)[C@@H](c5ccc6ccncc6c5)CC[C@H]24)C=C3[C@@H](O)[C@@H]1O,STK24,"ATP probe labelling, inhibitor, KiNativ profiling",,0.1 µM,,inhibition,-1.7%
N=C(N)NCCC[C@H](NC(=O)[C@H](CCCNC(=N)N)NC(=O)[C@H](CCCNC(=N)N)NC(=O)[C@H](CCC(N)=O)NC(=O)[C@H](CCCNC(=N)N)NC(=O)[C@H](CCCNC(=N)N)NC(=O)[C@H](CCCCN)NC(=O)[C@H](CCCCN)NC(=O)[C@H](CCCNC(=N)N)NC(=O)CNC(=O)[C@H](Cc1ccc(O)cc1)NC(=O)[C@H](Cc1ccccc1)NC(=O)[C@H](Cc1ccccc1)NC(=O)[C@H](Cc1ccccc1)NC(=O)Cc1ccc2ccccc2c1)C(=O)O,,,C57BL/6 mice,"intraperitoneal, 5 mg/kg, 2 h",direction not given,health score,5

# Repeated from above:
SMILES,tested on,assay,test system,setting,how to read,measurement,result
CCN(CC)CCOc1ccc(-c2nnn(Cc3ccc(OC)cc3)c2N)cc1,,,Sprague-Dawley rat,"100, 200, 400 mg/kg",,micronucleus formation,negative
COc1ccccc1-c1n[nH]c2nc(NC3CCN(C(=O)Cc4ccc(F)cc4F)CC3)ncc12,,"bead binding, competition bead pull-down, item: LINJ.33.2520",Leishmania donovani extract,10 µM,relative to: vehicle,relative abundance,0.89
CC[C@H](C)[C@H](NC(=O)[C@H](CCCCN)NC(=O)CNC(=O)[C@H](CC(C)C)NC(=O)[C@H](Cc1ccccc1)NC(=O)[C@H](CCCCN)NC(=O)[C@H](CO)NC(=O)[C@H](Cc1ccccc1)NC(=O)[C@H](Cc1c[nH]c2ccccc12)NC(=O)[C@H](CCC(N)=O)NC(=O)[C@@H](NC(=O)[C@H](Cc1ccccc1)NC(=O)CCCCCNC(=O)CN1CCN(CC(=O)O)CCN(CC(=O)O)CCN(CC(=O)O)CC1)C(C)C)C(=O)N[C@@H](CCC(=O)O)C(=O)N1CCC[C@H]1C(=O)N[C@@H](CC(=O)O)C(=O)N[C@H](C(=O)N[C@@H](CO)C(=O)N[C@@H](CCC(N)=O)C(=O)N[C@H](C(=O)N[C@@H](CCC(N)=O)C(=O)N[C@@H](CC(=O)O)C(=O)N1CCC[C@H]1C(=O)N[C@@H](CC(N)=O)C(=O)N[C@@H](CC(=O)O)C(=O)N[C@@H](CCC(N)=O)C(=O)N[C@@H](Cc1ccc(O)cc1)C(=O)N[C@@H](CCC(=O)O)C(=O)N1CCC[C@H]1C(=O)N[C@@H](Cc1ccccc1)C(=O)O)C(C)C)C(C)C [copper-64 labelled],,dynamic PET,"mouse both sexes, CT26 tumour, untreated, tumour","intravenous, 100 µCi/mouse, 690 s",,SUVmean,1.14 SUV
